Results pooled from the literature.
Every numbered part comes from another study and shows a few of its results, in no order.

Series 1
Target: RNA binding protein fox-1 homolog 2, RRM domain, GST-SBP tag (RBFOX2, Homo sapiens, UniProt O43251-10, residues 100-194)
Method: RNA Bind-n-Seq
Molecule type: RNA
Medium: in vitro
Concentration: 365 nM
Setting: natural RNA segment, single round, ends assumed
Reference: no-protein control
Direction: higher = stronger binding
Constant ends, left off below: GGGAGUUCUACAGUCCGACGAUC … UGGAAUUCUCGGGUGCCAA
Strand | RBNS enrichment (R)
ACAUAAUUCAAAAGAGUAAAGAAAUGGCUAGGAAUGAGGUAGUUGUGUAAUUAUUUCUUCUCUUACUAGUUUCAAAUAAAUUCAUCUCUAAUUCUAUAGAGAAUUCUUGC | 0.932
UGAACUUCCAUGAUUGAUCCUUGAUAUAAAUAAUAAAAGAAAAUAUUUAUGAUGAAAUAUUUUAAUUAGGUCAAUUAUCUAGAAUUACCUAGUUUUGUCUAUAUAUCUUU | 1.58
UUCUGGAACUUACAGUAUGAAGAGCAGAUGAGGAGUUUGAGACAAAGAAAAAAUUGUACAGGGAGUUUAGUGAAUUUUCCAUCAGGUUGGCCAUUACUUUCUUUCUCUAA | 0.709
GGGGAAACUGAGCCAGGUCCAGGCCGAUGAGAAGUUCCCAGUGGGCUGAAGUGGCCACCAGGGGUCAGCAGUGCUCCAGUUGCUGGGCUUAAAGCUUCCUGGUGCCUGUC | 0.448
GGUUAGCACUUAAUAUGUAGAAGCUUGGGCUUGAAGGUGAUGUCCACCUUAAUCAGCAUCACUUGCAGAGACUGACCCUAAACAACACAGCAGGGGCAGGGAACGGGUAG | 1.13
UGCCUUUAUUUUAAAUACUGCAAUUUUACUUCUUCAUUCAUGUAUUUAUUAUUUUGCUUUUCUUGCUUAAGUAUAAUUGAAAAUAUUUGCAGGAACGCACAAUUCAUUUU | 1.23
UUUGGUGAAAUAUCAAAAAAAUGCAAGUACAGCAUGCAUAUUUAAGAAUUUCUGAACUAACACUUGAAAUCACAUUUUAUAAAGAUUGUUGGUACUCAGAGUUGUAUUUG | 0.72
GCUCUAUCUCUACAACAUUUAAUGAAUUUCUUGUAAACCACUUUGAGAUACAUUGUUUUGGAAAUUCAUACAAUUUUCUCAACAUGGUACUCUACUGGCAGGAUGCAGUU | 0.553

Series 2
Cell line: HEK-293T
Effect on: pseudovirus infection
Method: FDA-approved drug library screen
Organism: VSV pseudotyped with SARS-CoV-2 spike
Concentration: 10 µM
Time: 16 h
Reference: vehicle-treated
SMILES | GFP-positive cells [%]
C[C@H]1CN(C[C@H](Cc2ccccc2)C(=O)NCC(=O)O)CC[C@@]1(C)c1cccc(O)c1 | 73.3
Clc1ccc(CCC(Cn2ccnc2)Sc2c(Cl)cccc2Cl)cc1 (centres unmarked) | 58.5
NCC[C@H](O)C(=O)N[C@@H]1C[C@H](N)[C@@H](O[C@H]2O[C@H](CN)[C@@H](O)[C@H](O)[C@H]2O)[C@H](O)[C@H]1O[C@H]1O[C@H](CO)[C@@H](O)[C@H](N)[C@H]1O | 85.7
CCC(=O)OCC(=O)[C@@]1(OC(=O)CC)[C@@H](C)C[C@H]2[C@@H]3CCC4=CC(=O)C=C[C@]4(C)[C@@]3(Cl)[C@@H](O)C[C@@]21C | 84.2

Series 3
Organism: SARS-CoV-2
Effect on: cytopathic effect
Cells: Vero E6
Concentration: 10 µM
Compound | inhibition [%]
O=C1C2CC=CCC2C(=O)N1SC(Cl)(Cl)Cl (centres unmarked) | -25.1
Cn1sc(=O)n(Cc2ccccc2)c1=O | 2.6
S=C=NCc1ccccc1 | -0.3
COc1cc(-c2ccc(/N=N/c3ccc4c(S(=O)(=O)O)cc(S(=O)(=O)O)c(N)c4c3O)c(OC)c2)ccc1/N=N/c1ccc2c(S(=O)(=O)O)cc(S(=O)(=O)O)c(N)c2c1O | -14.2
CC1=C(/C=C/C(C)=C/C=C/C(C)=C/C(=O)O)C(C)(C)CCC1 | 1
CN1CC[C@@]2(C)c3cc(O)ccc3N(C)[C@@H]12 | -32.4

Series 4
Target: Replicase polyprotein 1ab, polymerase (rep, Severe acute respiratory syndrome coronavirus 2, UniProt P0DTD1)
Effect on: enzyme activity
Mode: inhibitor
Concentration: 20 µM
SMILES | inhibition
O=[N+]([O-])c1nccn1CC(O)CN1CCCCC1 (centres unmarked) | -0.15%
COc1ccc2[nH]cc(CCNC(C)=O)c2c1 | -2.79%
CCC1NC(=O)c2cc(S(N)(=O)=O)c(Cl)cc2N1 (centres unmarked) | -4.98%
COC(=O)N/N=C/c1c[n+]([O-])c2ccccc2[n+]1[O-] | -10.7%
CCC(=O)NC1CCc2cccc(OC)c2C1 (centres unmarked) | -0.05%
O=C(Nc1ccccc1)c1cc([N+](=O)[O-])ccc1Cl | -1.98%
CNC(=O)[C@H]1O[C@@H](n2cnc3c(NCc4cccc(I)c4)nc(Cl)nc32)[C@H](O)[C@@H]1O | 32.7%
N#Cc1ncccn1 | 1.04%
Cc1ccc2c(Br)cc(Br)c(OC(=O)c3ccccc3)c2n1 | -13.9%
CC(C)(CO)[C@@H](O)C(=O)NCCC(=O)O | 3%
C[Se]CC[C@H](N)C(=O)O | -0.65%
Cc1c(F)cccc1NC(=O)Nc1ccc(Cl)c(S(=O)(=O)[C@H]2CCCNC2)c1O | -0.32%
CC(C)Nc1cc(-c2c[nH]c(C(=O)N[C@H](CO)c3cccc(Cl)c3)c2)c(Cl)cn1 | 1.08%
N#Cc1ccccc1OCC(O)CNCCNC(=O)Nc1ccccc1 (centres unmarked) | 2.13%
O[C@H]1[C@H]2[C@H](O)CCCN2C[C@H]1O | -0.11%
O=C(O)C1=C(CSc2nnnn2CS(=O)(=O)O)CS[C@@H]2[C@H](NC(=O)[C@H](O)c3ccccc3)C(=O)N12 | 1.9%
C=CC(=O)N1CCC[C@@H](n2nc(-c3ccc(Oc4ccccc4)cc3)c3c(N)ncnc32)C1 | -2.01%
COC(=O)c1ccc2c(c1)NC(=O)/C2=C(\Nc1ccc(N(C)C(=O)CN2CCN(C)CC2)cc1)c1ccccc1 | -5.49%
OC(CCCN1CCCCC1)(c1ccccc1)c1ccccc1 | -3.45%
CNCC(O)c1ccc(O)c(O)c1 (racemic) | 0.98%
COC(=O)C1=C(C)NC(C)=C([N+](=O)[O-])[C@H]1c1ccccc1C(F)(F)F | 1.84%
COc1cc2c(cc1OC)CN(CCc1ccc(NC(=O)c3cccc4c(=O)c5cccc(OC)c5[nH]c34)cc1)CC2 | 93%
CC/C=C(\C(=O)N[C@@H]1C(=O)N2C(C(=O)OCOC(=O)C(C)(C)C)=C(COC(N)=O)CS[C@H]12)c1csc(N)n1 | 4.51%
COC(=O)c1cc2c(C(F)(F)F)cc(-c3ccccc3)cc2n1O | -4.12%

Series 5
Target: Sal-like protein 4, full length isoform B (SALL4, Homo sapiens, UniProt Q9UJQ4-2, residues 1-616)
Method: universal PBM
Molecule type: double-stranded DNA, one strand shown
Medium: in vitro
Concentration: not given
Setting: 8-mer, flanks averaged, mean of replicates
Direction: higher = stronger binding
Strand | E-score
CACGTAAA | 0.201
GCACCTAA | -0.051
AGGAGTTC | -0.103
AAATTTTA | 0.351
TAAAAAAA | 0.32
GCGCCTCC | -0.268
CCTAATCC | -0.0635
ATCCGGAT | -0.224

Repeated from above (series 4):
SMILES | inhibition
O=[N+]([O-])c1nccn1CC(O)CN1CCCCC1 (centres unmarked) | -0.15%
CNCC(O)c1ccc(O)c(O)c1 (racemic) | 0.98%
CNC(=O)[C@H]1O[C@@H](n2cnc3c(NCc4cccc(I)c4)nc(Cl)nc32)[C@H](O)[C@@H]1O | 32.7%
OC(CCCN1CCCCC1)(c1ccccc1)c1ccccc1 | -3.45%
Cc1ccc2c(Br)cc(Br)c(OC(=O)c3ccccc3)c2n1 | -13.9%
